Experimental data gathered from unrelated publications.
Protocols differ between the studies behind these lines. “And” joins repeats or separate records; there may be more than shown.
BRAF: Serine/threonine-protein kinase B-raf (BRAF, Homo sapiens, UniProt P15056)
UniProt P15056, sequence (whole entry, unmodified, looked up): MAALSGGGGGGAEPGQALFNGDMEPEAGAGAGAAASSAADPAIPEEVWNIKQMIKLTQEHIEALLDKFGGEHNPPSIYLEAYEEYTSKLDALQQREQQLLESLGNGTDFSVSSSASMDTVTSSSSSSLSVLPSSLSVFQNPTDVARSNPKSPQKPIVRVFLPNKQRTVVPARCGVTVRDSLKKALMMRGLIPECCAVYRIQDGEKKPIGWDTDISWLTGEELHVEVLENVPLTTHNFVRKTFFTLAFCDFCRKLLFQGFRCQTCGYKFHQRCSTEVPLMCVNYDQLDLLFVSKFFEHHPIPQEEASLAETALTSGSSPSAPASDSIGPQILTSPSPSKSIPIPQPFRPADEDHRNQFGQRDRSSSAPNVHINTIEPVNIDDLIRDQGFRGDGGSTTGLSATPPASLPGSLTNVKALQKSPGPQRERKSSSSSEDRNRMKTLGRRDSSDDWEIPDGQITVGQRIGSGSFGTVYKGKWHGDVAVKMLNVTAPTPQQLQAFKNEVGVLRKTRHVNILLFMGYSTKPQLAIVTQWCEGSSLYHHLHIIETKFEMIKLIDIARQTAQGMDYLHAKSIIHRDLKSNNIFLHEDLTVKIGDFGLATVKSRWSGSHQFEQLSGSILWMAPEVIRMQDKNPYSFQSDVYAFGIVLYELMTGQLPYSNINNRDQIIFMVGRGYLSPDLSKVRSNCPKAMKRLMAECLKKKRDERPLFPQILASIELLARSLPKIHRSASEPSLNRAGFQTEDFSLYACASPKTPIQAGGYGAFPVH
BRAF V600E: Serine/threonine-protein kinase B-raf (BRAF, Homo sapiens, UniProt P15056, V600E)

O=C(Cc1ccc(OCc2ccccc2)cc1)NC1(C(=O)O)CCN(C(=O)c2ccc(-c3cccc(Cl)c3)cc2)CC1  activity vs control (BRAF; enzyme activity, inhibitor; 10 µM): 118%
C=C1CCCCCCCCCC(CO)C1=O (centres unmarked)  remaining signal (BRAF; cell-free assay; 10 µM): 72%
C[C@H]1CN(C(=O)c2cn(-c3ccnc(N)n3)c3cc(C#CC4(O)CCCCC4)ccc23)CCN1  inhibition (BRAF; enzyme activity, inhibitor, FRET; 1 µM): -2%
CN1CCN(Cc2ccc(-c3ccc(CO[C@H]4CCC[C@@H]4NC(=O)c4cc(-c5cnn(C)c5)cnc4N)cc3)cc2)CC1  inhibition (BRAF; enzyme activity, inhibitor; 0.1 µM): 4% and 10%
Cc1cccc(O[C@H]2CCC[C@@H](C(C)CNCc3ccncc3)C2)c1 (relative stereo)  inhibition (BRAF; cell-free assay; 10 µM): -1%
COc1ccc(NC(=O)Nc2ccc3c(c2)C(=O)N(C(C)CO)CC(C)C(CN(C)Cc2ccc4c(c2)OCO4)O3)cc1 (centres unmarked)  remaining activity (BRAF; kinase activity, KinaseProfiler; 0.03 µM, species human; reference: control): 98%
COc1cc(Nc2nc(C)cc(-c3cnn4nc(OC)ccc34)n2)cc(C(F)(F)F)c1  remaining activity (BRAF; inhibitor; 1 µM; reference: control): 100%
COCC12C(=O)NC3C4(C(OC)CC1O)C1CC5(O)C(OC)C(O)C(OC(C)=O)(C1C5OC(=O)c1ccccc1)C3(O)C(OC)C24 (centres unmarked)  remaining activity (BRAF V600E; kinase activity, inhibitor, ProQinase kinase profiling; 25 µM; reference: control): 104% and 95%
CCn1cc(C(=O)O)c(=O)c2c(N)c(F)c(NC3CCCCC3)cc21  inhibition (BRAF V600E; kinase activity; 0.1 µM, together with: ATP at Km): 9.1%
C=CC(=O)Nc1cccc(-c2cnc3[nH]cc(C(=O)NC(C)(C)C)c3n2)c1  inhibition (BRAF; kinase activity; 0.1 µM): -4% and -3%
COc1ccc(C(=O)/C=C/c2ccccc2-c2c[nH]c3ccc(C#N)cc23)c(O)c1  inhibition (BRAF; enzyme activity, inhibitor; 20 µM): -1%
NC(=O)C[C@H]1CCc2sc3ncnc(O[C@H]4CC[C@H](N5CCOCC5)CC4)c3c21  inhibition (BRAF; enzyme activity, inhibitor; 10 µM): 7%
CN1CC[C@@H](COc2cnc(C#N)cc2-c2ccn3nc(NC(=O)C4CC4)cc3c2)C1  inhibition (BRAF; enzyme activity, inhibitor; 1 µM): 4%
CN1CCN(Cc2ccc(NC(=O)c3cccc(C#Cc4cnc(N)c5ncccc45)c3)cc2C(F)(F)F)CC1  remaining binding (BRAF V600E; cell-free assay, competition with immobilised ligand; 50 nM): 1%

A few entries again:
COc1ccc(NC(=O)Nc2ccc3c(c2)C(=O)N(C(C)CO)CC(C)C(CN(C)Cc2ccc4c(c2)OCO4)O3)cc1 (centres unmarked)  remaining activity (BRAF; kinase activity, KinaseProfiler; 0.03 µM, species human; reference: control): 98%
COc1cc(Nc2nc(C)cc(-c3cnn4nc(OC)ccc34)n2)cc(C(F)(F)F)c1  remaining activity (BRAF; inhibitor; 1 µM; reference: control): 100%
